Measured values from different studies.
Every numbered part comes from another study and shows a few of its results, in no order. Substitutions count along the parent as printed.

Sample 1 — technique: Sort-seq; item: YFP reporter; sample: E. coli; setting: PhoQ-PhoP variant library; added: 10 µM Mg2+; relative to: high Mg2+ state; direction: higher = stronger signaling; endpoint: fold induction
Molecule: PhoQ, residues 284 288 289 292 302 303 SCCLKL
PhoP, residues 12 14 15 18 19 LFHKL (Escherichia coli, UniProt P23836): 0.352
PhoP, residues 12 14 15 18 19 QQAYL (Escherichia coli, UniProt P23836): 5.59
PhoP, residues 12 14 15 18 19 GMGLL (Escherichia coli, UniProt P23836): 1.87

Sample 2 — technique: RNA Bind-n-Seq; molecule type: RNA; sample: in vitro; concentration: 1 µM; setting: whole 134-nt RNA, ends assumed; added: 150 mM KCl; relative to: input library; direction: higher = stronger binding; endpoint: log2 enrichment
Target: Ras GTPase-activating protein-binding protein 1, C-terminal RGG region (G3BP1, Homo sapiens, UniProt Q13283)
Chain of UniProt Q13283 (whole entry, looked up): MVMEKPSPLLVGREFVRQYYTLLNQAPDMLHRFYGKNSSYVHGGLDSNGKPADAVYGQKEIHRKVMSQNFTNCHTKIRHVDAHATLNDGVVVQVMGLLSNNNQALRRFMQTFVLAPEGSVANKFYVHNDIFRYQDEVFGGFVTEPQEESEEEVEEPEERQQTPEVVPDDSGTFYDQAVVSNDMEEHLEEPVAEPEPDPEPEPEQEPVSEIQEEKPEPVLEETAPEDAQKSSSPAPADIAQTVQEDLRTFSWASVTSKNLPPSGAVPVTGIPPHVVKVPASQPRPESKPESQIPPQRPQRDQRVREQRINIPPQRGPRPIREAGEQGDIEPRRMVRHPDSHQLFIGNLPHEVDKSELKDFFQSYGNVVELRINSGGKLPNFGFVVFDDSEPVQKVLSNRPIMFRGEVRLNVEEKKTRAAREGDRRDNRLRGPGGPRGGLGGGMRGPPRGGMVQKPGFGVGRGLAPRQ
Shared flanks, not repeated: GGGAGUUCUACAGUCCGACGAUC … UGGAAUUCUCGGGUGUCAAGG
UGCUGAAGCUCACACCCGUGGACCACCCAGACUGCCUGCCGCUACAGGAUGCCCUCCGCAUCUCCCAGGACUUCUUUCCGGCAUCAGUGU: -0.222
AAGUCCUGUGCUACACAUCGUAUGUACCGAAUCGGUUUUUGGUUUGGAAAAAAAGGAAAGUAUUAUGUUACGCCGUUCGGAUCUGCACUU: -2.26
GCCGGAAGUAAAAACAAAUGGAAAUGCUUCGGAUAGUGGCAGGGGUGGGGGUUGCUAAGGAAAGGGUGGGAUGGGAGUGGGUAAAGAGUU: 1.39
CCUCAAGUCCUGUGCUACACAUCGUAUGUACCGAAUCGGAAGGGGAAGGAAGGAAAGUAUUAUGUUACGCCGUUCGGAUCUGCACUUCCA: -1.4
UCAAGUCCUGUGCUACACAUCGUAUGUACCGAAUCGGGAAAGGAAAGGAAAGGGGAAAGUAUUAUGUUACGCCGUUCGGAUCUGCACUUC: -1.56
AAGUCCUGUGCUACACAUCGUAUGUACCGAAUCGGAAAAAGGAAAAAGGUUUUUGGAAAGUAUUAUGUUACGCCGUUCGGAUCUGCACUU: -2.08
ACCAUGCAGGUGGGCAUCUUUGGGAAGUGGGGCAAGGGGGGGAUAGGGAGGGGGGUAACACUUGGGGAACAGGUGGUCCCAGGUCGUUUC: 2.48
UGGGAGGUGGAUUUUGUUUAUUUUUUUAGCUCAUUUCCAGGGGUGGGAAUUUUUUUUUAAUAUGUGUCAUGAAUAAAGUUGUUGUUGAAA: 3.11
AAGUCCUGUGCUACACAUCGUAUGUACCGAAUCGGGUUUGGGUUUUUGGGAAAGGGAAAGUAUUAUGUUACGCCGUUCGGAUCUGCACUU: 1

Sample 3 — technique: DHFR PCA, deep sequencing; sample: yeast; added: (+)-ABA 17 µM; relative to: wild-type fitted maximum; direction: higher = stronger binding; endpoint: relative binding score
Target: ABI1, truncated, D143A, DHFR fusion (Arabidopsis thaliana)
Setting: methotrexate growth selection, single substitutions
Starting sequence: PYL1, truncated, DHFR fusion (Arabidopsis thaliana); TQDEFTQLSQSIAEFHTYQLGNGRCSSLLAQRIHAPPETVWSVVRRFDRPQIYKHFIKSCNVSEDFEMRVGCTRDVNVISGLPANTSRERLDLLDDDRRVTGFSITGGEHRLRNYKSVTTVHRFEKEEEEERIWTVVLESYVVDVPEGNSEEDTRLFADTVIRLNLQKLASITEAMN; partner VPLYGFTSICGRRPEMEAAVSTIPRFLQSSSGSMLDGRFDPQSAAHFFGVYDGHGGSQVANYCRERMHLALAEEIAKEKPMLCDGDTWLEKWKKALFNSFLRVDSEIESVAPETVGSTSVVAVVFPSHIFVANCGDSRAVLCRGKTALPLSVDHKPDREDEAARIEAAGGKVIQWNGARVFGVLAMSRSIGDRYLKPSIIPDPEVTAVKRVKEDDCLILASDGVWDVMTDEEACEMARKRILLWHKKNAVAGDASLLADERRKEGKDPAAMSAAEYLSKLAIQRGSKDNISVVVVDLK
E130Q: 84.6%
S63P: 90.6%
S11K: 66.1%
P36S: 77.6%
M68N: 73.3%

Sample 4 — technique: universal PBM; molecule type: double-stranded DNA, one strand shown; sample: in vitro; concentration: not given; direction: higher = stronger binding; endpoint: E-score
Target: Sal-like protein 4, full length isoform B (SALL4, Homo sapiens, UniProt Q9UJQ4-2, residues 1-616)
Setting: 8-mer, flanks averaged, mean of replicates
Residues (chain): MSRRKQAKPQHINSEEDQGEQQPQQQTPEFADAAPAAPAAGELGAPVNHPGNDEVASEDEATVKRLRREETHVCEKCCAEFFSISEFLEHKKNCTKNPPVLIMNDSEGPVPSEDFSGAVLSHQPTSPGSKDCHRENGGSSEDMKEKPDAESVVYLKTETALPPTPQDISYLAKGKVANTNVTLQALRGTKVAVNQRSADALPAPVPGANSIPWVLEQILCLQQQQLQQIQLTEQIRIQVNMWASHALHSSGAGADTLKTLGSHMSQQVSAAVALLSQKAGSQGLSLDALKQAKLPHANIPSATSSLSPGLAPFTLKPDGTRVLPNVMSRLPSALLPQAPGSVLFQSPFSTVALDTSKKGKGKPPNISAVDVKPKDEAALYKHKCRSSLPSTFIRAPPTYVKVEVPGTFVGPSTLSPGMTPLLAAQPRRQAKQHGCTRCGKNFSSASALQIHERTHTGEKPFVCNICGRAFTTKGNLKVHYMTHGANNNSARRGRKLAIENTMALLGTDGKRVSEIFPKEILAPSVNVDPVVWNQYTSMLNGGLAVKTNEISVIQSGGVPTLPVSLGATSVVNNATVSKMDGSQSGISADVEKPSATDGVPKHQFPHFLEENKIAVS
CGGGGCTA: -0.31
ACACGGCG: -0.228
GCCTCGTA: -0.0312
GCCGGCAA: -0.11
CGCCACTC: -0.162
AATCCTCC: -0.139
GTACGCAC: -0.0587
TCGCACGA: -0.0728

Some of these lines once more (sample 3):
P36S: 77.6%
E130Q: 84.6%
S63P: 90.6%
